Experimental data of several laboratories.
Numbered parts are unrelated; each lists some results of a single study.

Sample 1 — method: protein-binding microarray; molecule type: double-stranded DNA, one strand shown; matrix: in vitro; tested at: 2200 nM top; setting: 60-bp whole probe; together with: salmon DNA 0.4 mg/ml; baseline: random background probes; direction: higher = stronger binding; constant ends, left off below: GCCTAGCAC … GTCTTGATTCGCTTGACGCTGCTG
Target: Interferon regulatory factor 7, full length, phosphomimetic (IRF7, Homo sapiens, UniProt Q92985, residues 1-503, S471D/S472D/S475D/S476D/S477D/S483D/S484D/S487D)
Construct (chain): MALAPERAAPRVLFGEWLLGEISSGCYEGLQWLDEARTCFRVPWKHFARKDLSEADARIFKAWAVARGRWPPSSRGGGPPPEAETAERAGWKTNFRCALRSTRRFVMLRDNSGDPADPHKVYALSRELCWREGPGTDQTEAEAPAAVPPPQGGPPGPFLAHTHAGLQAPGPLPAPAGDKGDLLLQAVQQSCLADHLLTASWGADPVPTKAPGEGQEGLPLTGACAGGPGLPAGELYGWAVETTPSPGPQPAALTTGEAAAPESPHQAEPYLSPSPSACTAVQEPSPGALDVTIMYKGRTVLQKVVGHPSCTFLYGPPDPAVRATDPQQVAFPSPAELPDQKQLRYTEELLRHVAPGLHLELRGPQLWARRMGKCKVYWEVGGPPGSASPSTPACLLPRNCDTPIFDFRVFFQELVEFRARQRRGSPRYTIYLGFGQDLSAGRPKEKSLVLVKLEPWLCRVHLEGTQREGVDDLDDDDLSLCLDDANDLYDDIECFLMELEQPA
Oligonucleotide	fitted relative affinity [z-score]
GAATGTCCTCCTCTCTCTTTGTGCTAG	1.6
TTAGGTAGCGGGTATCGGTTAGTGCTA	-0.493
GACGGTCTCCGTTTCGGGACGTGCTAG	1.77
CACATCTGCTGTGGGAGCACGTGCTAG	0.572
TTAGGTATCGGGTAGCGGTTAGTGCTA	-0.146
GTGCTTCACAGAGGCGGCTGGTGCTAG	0.247
TCATCTTCCCCTCTCTTACTGTGCTAG	2.68
GACGATATCAGTCCCGAGACGTGCTAG	0.514
GACGGTTTCGGGGATCGGGACGTGCTA	2.36
TTCTCTTTCACTACTCCATTGTGCTAG	3.78
GACGGTTTCCTTATCCAGACGTGCTAG	2.75
TGGGCATTTTTTTTATCAATGTGCTAG	-0.368
GACGGTTTCGGTCTCGGGAAGTGCTAG	6.58
TTAGGTTTCGGGCTTCGGTTAGTGCTA	4.02
TCACTTTTGCTAATTTTACTGTGCTAG	1.83
TCATTTTTCATCATTGCACTGTGCTAG	2.13

Sample 2 — method: RNA Bind-n-Seq; molecule type: RNA; matrix: in vitro; tested at: not given; baseline: input RNA pool; direction: higher = stronger binding
Target: RING finger protein unkempt homolog, zinc fingers 1-6, GST-SBP tag (UNK, Homo sapiens, UniProt Q9C0B0, residues 30-357)
Sequence of UniProt Q9C0B0 (30-357, looked up): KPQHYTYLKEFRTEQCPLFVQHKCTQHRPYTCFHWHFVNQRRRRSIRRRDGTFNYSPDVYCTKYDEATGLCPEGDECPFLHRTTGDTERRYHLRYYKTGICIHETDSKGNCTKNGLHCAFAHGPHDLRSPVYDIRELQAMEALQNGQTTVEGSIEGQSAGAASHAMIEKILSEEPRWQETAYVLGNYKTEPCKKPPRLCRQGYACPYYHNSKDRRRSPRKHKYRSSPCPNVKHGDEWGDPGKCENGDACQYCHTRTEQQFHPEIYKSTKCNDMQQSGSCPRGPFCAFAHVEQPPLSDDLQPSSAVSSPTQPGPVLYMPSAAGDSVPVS
Setting: RNA with constant flanks, human-mouse chimeric sites, ends assumed
Oligonucleotide	bound/input enrichment
GGGAGUUCUACAGUCCGACGAUCCAGUCCCCGUGUCCCAGUGCAGGACGAUGUGAACAAAAACUCAAAGCGGACCCUCUAUUGUAGUUCUUGAUUCUCGAAAUGUGCUAUUAUUGUUUGUAAAAAAGGAAUUUUUUUUAAAGACAACAGAGGAUUGAGCAUCA	0.225 ratio
GGGAGUUCUACAGUCCGACGAUCGAUCCACAGUGGUCUGAGGAACAGCUGAUUGCUGCAAAAUUCUGUUUUGCUGGCCUUGUUAUAGGGCAGACUGAAGUGGACAUCAUGAGUCAUGCCACACAAGCUAUAUUUGAAAUACUGCAACAGAGGAUUGAGCAUCA	0.275 ratio
GGGAGUUCUACAGUCCGACGAUCGAUCAUGAACCACCAUCAGAAAUGAAGAUGAGAUUACCCAGACGAGCCCAAAACCGCGCGCUACAGAAAAGUAAACUUAACCUUGCACCAAUUUCUCAUGAAGAUACAAGUUAAGAGAGCCAACAGAGGAUUGAGCAUCA	0.2 ratio
GGGAGUUCUACAGUCCGACGAUCAAAGAGAAACUAAAGCAACUAAUAGAGAAGAGGAUUGGGCAAAGAGAUUUCAUAGAGAAACUAGGAUUUUAUUAGCAACAUGAGUUAUAUUCCAGAGCGUCUCAGAAACCCCAGCCAAACCAACAGAGGAUUGAGCAUCA	5.13 ratio

Sample 3 — method: protein binding microarray; molecule type: double-stranded DNA, one strand shown; matrix: in vitro; tested at: not given; baseline: not given; direction: higher = stronger binding
Target: Histone acetyltransferase KAT6A, winged helix 1, GST fusion (KAT6A, Homo sapiens, UniProt Q92794, residues 1-85)
Setting: 8-mer, flanks averaged, mean of 2 arrays, mostly near background
Residues (chain): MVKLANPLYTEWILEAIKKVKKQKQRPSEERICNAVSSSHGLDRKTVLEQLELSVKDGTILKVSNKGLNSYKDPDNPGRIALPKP
Oligonucleotide	E-score
AGCCCCAC	-0.237
AAAGTGCT	-0.14
GTCTTAAA	-0.0772
ACTCACGA	-0.221
GGACCTGA	0.139
AAGACCTT	-0.063
ACATGGAA	-0.171
AGTCGGTG	-0.128
ATAGTATG	-0.127
ATATGAGC	-0.0703
CTATTCAC	-0.0366
GACGGACC	0.163
CTACAGGA	-0.148
AGATAAGA	-0.186
AACAGCCG	0.167
CGCCATCA	0.0786
AGGGCGAT	-0.0679
ACCAGAAC	-0.14
CCCCTAGG	-0.135
CGGAGACA	0.101
CGCGGACC	0.378

Sample 4 — method: universal PBM; molecule type: double-stranded DNA, one strand shown; matrix: in vitro; tested at: not given; direction: higher = stronger binding
Target: Sal-like protein 4, full length isoform B (SALL4, Homo sapiens, UniProt Q9UJQ4-2, residues 1-616)
Setting: 8-mer, flanks averaged, mean of replicates
Residues (chain): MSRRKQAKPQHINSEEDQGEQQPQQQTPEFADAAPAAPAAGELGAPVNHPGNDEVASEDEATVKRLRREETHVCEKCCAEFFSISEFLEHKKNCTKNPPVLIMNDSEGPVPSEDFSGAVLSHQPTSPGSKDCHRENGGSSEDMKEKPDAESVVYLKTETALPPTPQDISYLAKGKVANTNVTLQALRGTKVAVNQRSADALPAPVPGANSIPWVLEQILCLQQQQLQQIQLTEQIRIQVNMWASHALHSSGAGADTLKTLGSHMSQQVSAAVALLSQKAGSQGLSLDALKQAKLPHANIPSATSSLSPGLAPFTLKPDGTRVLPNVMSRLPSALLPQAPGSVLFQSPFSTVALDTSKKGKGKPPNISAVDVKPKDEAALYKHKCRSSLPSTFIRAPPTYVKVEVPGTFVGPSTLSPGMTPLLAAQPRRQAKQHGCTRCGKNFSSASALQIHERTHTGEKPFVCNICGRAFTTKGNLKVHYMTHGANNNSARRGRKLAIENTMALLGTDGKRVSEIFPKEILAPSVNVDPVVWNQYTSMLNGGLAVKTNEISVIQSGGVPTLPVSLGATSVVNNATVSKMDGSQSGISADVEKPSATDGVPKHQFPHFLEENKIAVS
Oligonucleotide	E-score
GCAGCCAA	-0.0387
GCAAGACC	-0.129
ACGACAGG	-0.127
AAATTGTG	0.223
TGGGACAA	-0.0053
CGCCTCGC	-0.291
ATCCCCTG	-0.219
CCCACCCC	-0.113
GTCGCACA	-0.118
GAGCCATC	-0.281
ACTGTCCG	-0.133
ACAGAAAC	0.121

Sample 5 — method: RNA Bind-n-Seq; molecule type: RNA; matrix: in vitro; tested at: 365 nM; baseline: no-protein control; direction: higher = stronger binding
Target: RNA binding protein fox-1 homolog 2, RRM domain, GST-SBP tag (RBFOX2, Homo sapiens, UniProt O43251-10, residues 100-194)
Setting: natural RNA segment, single round, ends assumed
Constant ends, left off below: GGGAGUUCUACAGUCCGACGAUC … UGGAAUUCUCGGGUGCCAA
Target sequence (chain): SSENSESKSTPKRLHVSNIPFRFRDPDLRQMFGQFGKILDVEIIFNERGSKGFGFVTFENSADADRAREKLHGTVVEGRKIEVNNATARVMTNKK
Oligonucleotide	RBNS enrichment (R)
ACUGGGUAAAGGAAACACUAACCUGUUUCCAGUCUCCAGACAAAGGUUUAAAGCUUUUCAAGAACUGGGCUAAAACUCAUCCAGUUUAUCUACAGAAGCUGAAAACAGGC	0.243
UGCCCGUUCCAUGCCAAGCAUUAGGCUGGGUGCUUUACAUAAGUUUAAUCCUCACAAUAGCCCUGUAAGGUUGCACCUAUUAUCUCCACUUUGACCACGAAGAAACGGAG	1.21
UCACUUUGCCUUCCUGAGUUGGCCCCACUCCACUUGGGGGUCUGCAUUGGAUUGUUAGGGAUAGGCAGCAGGGCUGAGGCAAGGUAGGCCAACUGCACCCCUGUCGCCUG	0.338
AUUGGUCAUGUGUGUAUUUUUCCAUAGUCCCACCUUGGAGCAUUUAUGUAGACAUUGUAAAUAAAUUUUGUGCAAAAAGGACUGGAAAGAUGAACUGUAUUAUUGCAUUU	3.14
AUGUCAACUGGGUAAAGCCUUCCAGAGCUCUCUAAAUACCUGAAAGACUUAAGCCUUUUUUUAAGUAAUUAAUACUUAAAAAAAAAGAUCCUGGCAUCUAUUUAUGCAAC	0.783
GCAUUAGGAUCCUAUAACCAUGCCUGUCCCUGCUCUGUGUUUUAGGGAAGUGACAUAAAGUGAGGUCGCCCUUGCUAAGUCCUGCUGUCCUCUCUAGAGCCUUCCUCAGA	0.927
AUCCAACAACUAAAGAAUAAUCAUUGAAUGCGCGCAGUCGGUCCCUCACAGAGUGGCCCGUAUCACUCCCCACGUCUGUAGACACAUGGCUUUGAAUGAUUACUAUUUGG	0.633
AAAACAAAACAAAAAAAACACUUAAUAUUUCAGACUGUUACAGGAAACACCCUUUAGUCUGUCAGUUGAAUUCAGAGCACUGAAAGGUGUUAAAUUGGGGUAUGUGGUUU	0.819
AUCUAUGAUUCAAGACAGUGGGAAUUUUAUCUUCUGUAACAAGUUUCAAUAAAGUUAGACCAGCUUCUUCUGUGUCUAUUUCCUCGCCUAUAAAGUGGGACAUGUUUUGG	0.468
GCUUCCCCCCAGAGGGCAGUGGGGAUGCCUCCAGCCCCAGCCCCAAAUGGUGCUGCUACUGGAUCAGAUUGUGAACGGUUAACUCUGCCCUGAAGUGGGGGUGCGGGAAU	0.456
GCUCUUUAAGGUGCCUCUUCAGGGACACAGUGUGUGUCUGAUUGGGCUUCGCAUCAAAAGCCUGACGUUCCUGUCCCUCUUAUAGGGGGAGCUUUGGACACAGGACCAGU	0.204
AAGGAUGAAACUUGCCUGUUGGGGCGGAGCUGUCGCUCCUGAGGGGCCCCACCUUUACAUCCCAUCCCCACCUCACCCCUGCCCCAAUUAAGCCUUCCAAGUCCCCAGCC	0.724

Sample 6 — method: aptamer microarray, sandwich; molecule type: DNA with 2'F-ANA; matrix: in vitro; tested at: 200 nM; together with: Cy3 exosite-II aptamer, 400 nM; direction: higher = stronger binding; oligonucleotide: GGTTGGTGTGGTTGG
Target: Prothrombin, mature alpha-thrombin (F2, Homo sapiens, UniProt P00734)
Setting: whole 15-mer aptamer, many near background
Modification	mean fluorescence intensity [a.u.]
2'F-ANA at 2 5 6 9 12 13 14	67.7
2'F-ANA at 2 3 5 7 8 9 10 12 13 14	53.6
2'F-ANA at 2 3 5 7 9 10 12	85.2
2'F-ANA at 1 2 4 6 9 13 15	72.7
2'F-ANA at 1 2 4 11 12 14 15	54.9
2'F-ANA at 4 9 10 11 12 13 14 15	62.1
2'F-ANA at 5 6 9 11 14 15	48.5
2'F-ANA at 4 8 10 11	88.5
2'F-ANA at 3 4 8 9 11 12 13 14	290
2'F-ANA at 3 4 5 8 9 11 12 13 15	104
2'F-ANA at 2 3 9 14 15	431
2'F-ANA at 4 5 7 15	152
2'F-ANA at 1 2 6 7 8 9 10 14 15	184
